Results gathered from unrelated publications.
Protocols differ between the studies behind these lines. ± marks the error that the study gave.
Route: intravenous

For `N=C(N)NCCC[C@@H]1NC(=O)[C@H](CCCCNC(=O)CCOCCOCCOCCOCCNC(=O)CC[C@H](NC(=O)CCOCCOCCOCCOCCNC(=O)CC[C@H](NC(=O)CN2CCN(CC(=O)O)CCN(CC(=O)O)CCN(CC(=O)O)CC2)C(=O)NCCOCCOCCOCCOCCC(=O)N[C@@H](CCC(=O)NCCOCCOCCOCCOCCC(=O)NCCCC[C@@H]2NC(=O)[C@@H](Cc3ccccc3)NC(=O)[C@H](CC(=O)O)NC(=O)CNC(=O)[C@H](CCCNC(=N)N)NC2=O)C(=O)NCCOCCOCCOCCOCCC(=O)NCCCC[C@@H]2NC(=O)[C@@H](Cc3ccccc3)NC(=O)[C@H](CC(=O)O)NC(=O)CNC(=O)[C@H](CCCNC(=N)N)NC2=O)C(=O)NCCOCCOCCOCCOCCC(=O)NCCCC[C@@H]2NC(=O)[C@@H](Cc3ccccc3)NC(=O)[C@H](CC(=O)O)NC(=O)CNC(=O)[C@H](CCCNC(=N)N)NC2=O)NC(=O)[C@@H](Cc2ccccc2)NC(=O)[C@H](CC(=O)O)NC(=O)CNC1=O` [indium-111 labelled], the tissue uptake was 0.7 %ID/g (athymic nude mouse U-87 MG xenograft, liver; 1 h, added: RGD2 co-injected 14 mg/kg).
The tissue uptake of `N=C(N)NCCC[C@@H]1NC(=O)[C@H](CC(=O)NC23CNCCNCC(N)(CNCCNC2)CNCCNC3)NC(=O)[C@@H](Cc2ccccc2)NC(=O)[C@H](CC(=O)O)NC(=O)CNC1=O` [copper-64 labelled] is reported as 2.63 ± 0.53 %ID/g (Nu/Nu mouse, male, tumour-bearing, liver; 10 µCi, 2 h).
`CCCC[C@H](NC(=O)CNC(=O)[C@H](CO)NC(=O)CNC(=O)c1ccc(NN)nc1)C(=O)N[C@H]1CC(=O)NCCCC[C@@H](C(N)=O)NC(=O)[C@H](Cc2c[nH]c3ccccc23)NC(=O)[C@H](CCCNC(=N)N)NC(=O)[C@@H](Cc2ccccc2)NC(=O)[C@H](Cc2c[nH]cn2)NC1=O` [technetium-99m labelled] gave a tissue uptake of 0.08 ± 0.06 %ID/g (C57 mouse, B16/F1 melanoma, blood; 0.037 MBq, 2 h).
For `N=C(N)NCCC[C@@H]1NC(=O)[C@H](CCCCNC(=O)CNC(=O)CNC(=O)CNC(=O)CC[C@H](NC(=O)CNC(=O)CNC(=O)CNC(=O)c2ccc(NN=Cc3ccccc3S(=O)(=O)O)nc2)C(=O)NCC(=O)NCC(=O)NCC(=O)NCCCC[C@@H]2NC(=O)[C@@H](Cc3ccccc3)NC(=O)[C@H](CC(=O)O)NC(=O)CNC(=O)[C@H](CCCNC(=N)N)NC2=O)NC(=O)[C@@H](Cc2ccccc2)NC(=O)[C@H](CC(=O)O)NC(=O)CNC1=O` [technetium-99m labelled], the tissue uptake was 8.01 ± 0.68 %ID/g (athymic nu/nu mouse, female, MDA-MB-435 xenograft, kidney; 120 min).
The tissue uptake of `N=C(N)NCCC[C@@H]1NC(=O)[C@H](CCCCNC(=O)CCOCCOCCOCCOCCNC(=O)CC[C@H](NC(=O)CCOCCOCCOCCOCCNC(=O)[C@H](CCCCNC(=O)c2ccc(NN)nc2)NC(=O)c2ccc(NN)nc2)C(=O)NCCOCCOCCOCCOCCC(=O)NCCCC[C@@H]2NC(=O)[C@@H](Cc3ccccc3)NC(=O)[C@H](CC(=O)O)NC(=O)CNC(=O)[C@H](CCCNC(=N)N)NC2=O)NC(=O)[C@@H](Cc2ccccc2)NC(=O)[C@H](CC(=O)O)NC(=O)CNC1=O` [technetium-99m labelled] is reported as 10.3 ± 5.01 %ID/g (athymic nude mouse, female, U-87 MG xenograft, intestine; 0.1 MBq, 1 h).
`CCCC[C@H](NC(=O)CCCCCCCNC(=O)c1ccc(NN)nc1)C(=O)N[C@H]1CC(=O)NCCCC[C@@H](C(N)=O)NC(=O)[C@H](Cc2c[nH]c3ccccc23)NC(=O)[C@H](CCCNC(=N)N)NC(=O)[C@@H](Cc2ccccc2)NC(=O)[C@H](Cc2c[nH]cn2)NC1=O` [technetium-99m labelled] has a tissue uptake of 84.5 ± 4.8 %ID (C57 mouse, B16/F1 melanoma, urine; 0.037 MBq, 4 h).
`N=C(N)NCCC[C@H](NC(=O)[C@H](CCCCN)NC(=O)[C@H](CCC(N)=O)NC(=O)CCOCCOCCOCCNC(=O)CN1CCN(CC(=O)O)CCN(CC(=O)O)CCN(CC(=O)O)CC1)C(=O)N[C@@H](CCCCN)C(=O)N[C@@H](CCCNC(=N)N)C(=O)N[C@@H](CCCCN)C(=O)N[C@@H](CCCCN)C(=O)N[C@@H](CO)C(=O)N[C@@H](CCCNC(=N)N)C(=O)N[C@@H](Cc1ccc(O)cc1)C(=O)N[C@@H](CCCCN)C(=O)N[C@@H](CO)C(=O)O` [copper-64 labelled] has a tissue uptake of 1.52 ± 0.72 %ID/g (C57BL/6 Jms mouse, male, B16-F10 melanoma, intestinal lymph node; 60 min).
`N=C(N)NCCC[C@@H]1NC(=O)[C@H](CCCCNC(=O)CNC(=O)CNC(=O)CNC(=O)c2ccc(NN=Cc3ccccc3S(=O)(=O)O)nc2)NC(=O)[C@@H](Cc2ccccc2)NC(=O)[C@H](CC(=O)O)NC(=O)CNC1=O` [technetium-99m labelled] has a tissue uptake of 6.7 ± 1.59 %ID/g (athymic nu/nu mouse, female, U-87 MG glioma xenograft, tumour; 2 µCi, 30 min).
For `CCCC[C@H](NC(=O)[C@H](Cc1cccs1)NC(=O)[C@H](Cc1c[nH]cn1)NC(=O)CCNC(=O)[C@@H](NC(=O)[C@H](C)NC(=O)[C@H](Cc1c[nH]c2ccccc12)NC(=O)[C@H](CCC(N)=O)NC(=O)[C@H](Cc1cccs1)NC(=O)CN1CCC(NC(=O)CN(CCN(CCN(CC(=O)O)CC(=O)O)CC(=O)O)CC(=O)O)CC1)C(C)C)C(N)=O` [indium-111 labelled], the tissue uptake was 14.7 ± 3.8 %ID/g (Swiss nu/nu mouse, male, PC-3 tumour xenograft, pancreas; 10 pmol, 1 h).
`CCCC[C@H](NC(=O)CNC(=O)CNC(=O)c1ccc(NN)nc1)C(=O)N[C@H]1CC(=O)NCCCC[C@@H](C(N)=O)NC(=O)[C@H](Cc2c[nH]c3ccccc23)NC(=O)[C@H](CCCNC(=N)N)NC(=O)[C@@H](Cc2ccccc2)NC(=O)[C@H](Cc2c[nH]cn2)NC1=O` [technetium-99m labelled] has a tissue uptake of 2.94 ± 0.14 %ID/g (C57 mouse, B16/F1 melanoma-bearing, skin; 0.5 h).
The tissue uptake of `CSCC[C@H](NC(=O)[C@H](CC(C)C)NC(=O)[C@H](Cc1c[nH]cn1)NC(=O)CNC(=O)[C@@H](NC(=O)[C@H](C)NC(=O)[C@H](Cc1c[nH]c2ccccc12)NC(=O)[C@H](CCC(N)=O)NC(=O)[C@H](CC(N)=O)NC(=O)CNC(=O)[C@H](Cc1ccc(O)cc1)NC(=O)[C@H](CCCNC(=N)N)NC(=O)[C@H](CCC(N)=O)NC(=O)[C@@H]1CCCN1C(=O)CN1CCN(CC(=O)O)CCN(CC(=O)O)CCN(CC(=O)O)CC1)C(C)C)C(N)=O` [indium-111 labelled] is reported as 1.4 ± 0.4 %ID/g (Swiss nu/nu mouse, male, PC-3 tumour xenograft, tumour; 10 pmol, 4 h).
For `CSCC[C@H](NC(=O)[C@H](CC(C)C)NC(=O)[C@H](Cc1c[nH]cn1)NC(=O)CNC(=O)[C@@H](NC(=O)[C@H](C)NC(=O)[C@H](Cc1c[nH]c2ccccc12)NC(=O)[C@H](CCC(N)=O)NC(=O)CCCCCNC(=O)CNC(=O)CNC(=O)CNC(=O)CSC(C)=O)C(C)C)C(N)=O` [technetium-99m labelled], the tissue uptake was 0.73 ± 0.07 %ID/g (Swiss mouse, spleen; 18.5 MBq, 240 min).
